Experimental data gathered from unrelated publications.
Each numbered part is a random draw from the data of one study; scales do not carry over between parts.
UniProt P45983, sequence (whole entry, looked up): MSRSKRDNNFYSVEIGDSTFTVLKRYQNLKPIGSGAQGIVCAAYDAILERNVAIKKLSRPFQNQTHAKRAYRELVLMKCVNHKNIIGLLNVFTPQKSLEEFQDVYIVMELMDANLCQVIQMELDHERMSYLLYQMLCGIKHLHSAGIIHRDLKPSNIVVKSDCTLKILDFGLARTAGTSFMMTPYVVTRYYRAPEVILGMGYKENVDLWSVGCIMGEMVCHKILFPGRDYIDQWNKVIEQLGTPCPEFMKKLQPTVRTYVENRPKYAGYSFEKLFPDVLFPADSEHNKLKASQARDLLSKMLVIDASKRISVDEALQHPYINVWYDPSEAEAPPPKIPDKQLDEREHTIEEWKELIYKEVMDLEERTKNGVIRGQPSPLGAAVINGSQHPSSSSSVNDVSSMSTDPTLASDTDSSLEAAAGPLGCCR

Set 1
Target: Histone acetyltransferase KAT6A, winged helix 2, GST fusion (KAT6A, Homo sapiens, UniProt Q92794, residues 85-181)
Method: protein binding microarray
Molecule type: double-stranded DNA, one strand shown
Matrix: in vitro
Tested at: not given
Setting: 8-mer, flanks averaged, mean of 2 arrays, mostly near background
Relative to: not given
Reading: higher = stronger binding
Target sequence (chain): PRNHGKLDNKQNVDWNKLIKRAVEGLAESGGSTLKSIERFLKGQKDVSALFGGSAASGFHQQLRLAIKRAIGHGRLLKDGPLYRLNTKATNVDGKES
`ATAGAGCC` gave an E-score of -0.062.
With `CGAACACA` the E-score was 0.141.
`CGAGGAGA` has an E-score of -0.2.
With `CCTGATAA` the E-score was 0.00936.
The E-score of `GAAGTGAC` is reported as 0.0217.
For `ACGTGGCG`, the E-score was -0.0792.
The E-score of `ATAACAAT` is reported as 0.052.
For `ATGGGCAA`, the E-score was -0.0626.

Set 2
Target: Interferon regulatory factor 7, full length, phosphomimetic (IRF7, Homo sapiens, UniProt Q92985, residues 1-503, S101K/S471D/S472D/S475D/S476D/S477D/S483D/S484D/S487D)
Method: protein-binding microarray
Molecule type: double-stranded DNA, one strand shown
Matrix: in vitro
Tested at: 250 nM
Setting: 60-bp whole probe
Together with: salmon DNA 0.4 mg/ml
Relative to: random background probes
Reading: higher = stronger binding
Constant ends, left off below: GCCTAGCAC … GTCTTGATTCGCTTGACGCTGCTG
Target sequence (chain): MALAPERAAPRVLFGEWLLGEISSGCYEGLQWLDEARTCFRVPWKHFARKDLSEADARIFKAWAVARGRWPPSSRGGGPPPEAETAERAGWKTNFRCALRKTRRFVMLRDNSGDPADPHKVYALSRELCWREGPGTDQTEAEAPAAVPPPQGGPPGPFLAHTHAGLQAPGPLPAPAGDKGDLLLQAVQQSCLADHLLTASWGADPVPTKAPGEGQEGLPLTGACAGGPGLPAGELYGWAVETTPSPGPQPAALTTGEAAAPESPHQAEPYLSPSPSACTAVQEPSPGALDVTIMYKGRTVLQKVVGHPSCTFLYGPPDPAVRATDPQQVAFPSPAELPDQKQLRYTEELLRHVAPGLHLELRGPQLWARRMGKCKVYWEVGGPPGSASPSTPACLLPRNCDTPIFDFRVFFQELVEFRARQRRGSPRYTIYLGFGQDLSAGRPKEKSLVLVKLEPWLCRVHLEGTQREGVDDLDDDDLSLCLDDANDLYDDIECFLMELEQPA
With `TCATGTTTCCATCTCTCACTGTGCTAG` the log fluorescence was 2.63 z-score.
`CTCAGGTAATATTTCCTGCTGTGCTAG` gave a log fluorescence of 0.00745 z-score.
With `GACGATCTCAGTATCAAGACGTGCTAG` the log fluorescence was -0.0395 z-score.
The log fluorescence of `TCAGTTCTCTTTTATTTACTGTGCTAG` is reported as 2.73 z-score.
`GACGGTTTCGGTATCGGGTCGTGCTAG` has a log fluorescence of 11 z-score.
The log fluorescence of `TCATGCCTCATCTTGCAGACTGTGCTA` is reported as 0.441 z-score.
`GACGCTTTCGGTTCCGGGACGTGCTAG` has a log fluorescence of 3.66 z-score.
For `TTAGGTATCGGTACCGGTTAGTGCTAG`, the log fluorescence was 1.16 z-score.

Other studies, line by line
`CO[C@H]1CC[C@H](CNc2ccc(S(=O)(=O)NC(=O)c3ccc(N4CCN(CC5=C(c6ccc(Cl)cc6)CC(C)(C)CC5)CC4)cc3Oc3cnc4[nH]ccc4c3)cc2[N+](=O)[O-])CC1` has a remaining binding of 82% (MAPK8 (Homo sapiens, UniProt P45983); cell-free assay, competition with immobilised ligand; 1 µM).
`PhoQ, residues 284 288 289 292 302 303 NSMLDC` gave a fold induction of 23.8 (PhoP, residues 12 14 15 18 19 LWHVM (Escherichia coli, UniProt P23836); Sort-seq, item: YFP reporter; E. coli; PhoQ-PhoP variant library, together with: 10 µM Mg2+; relative to: high Mg2+ state, higher = stronger signaling).

For quick reference, copied from above (set 1):
For `ACGTGGCG`, the E-score was -0.0792.
With `CCTGATAA` the E-score was 0.00936.
The E-score of `GAAGTGAC` is reported as 0.0217.
